Assay results from different studies.
Numbers after ± are the reported error.

| Structure (SMILES) | cell line | test | test system | conditions | scale | endpoint | value |
| --- | --- | --- | --- | --- | --- | --- | --- |
| COC(=O)[C@H](CC(C)C)NC(=O)[C@@H]1CCCN1C(=O)[C@@H](NC(=O)[C@H](CCC(=O)C=[N+]=[N-])NC(=O)OCc1ccccc1)C(C)C | human myoblasts | item: cytochrome c |  | 50 µM, 2 h |  | mRNA level | increased |
| CCCC[C@H](O)C[C@@H](C)C[C@H](NC(=O)[C@@H]1C[C@H](C)CN1C(=O)/C=C/[C@@H](C)CC)C(=O)N[C@H](C(=O)NC(C)(C)C(=O)N[C@@H](CC(C)C)C(=O)N[C@@H](CC(C)C)C(=O)NC(C)(C)C(=O)NC(C)(C)C(=O)NCCC(=O)N[C@@H](C)CNC)[C@H](O)C(C)C | MDA-MB-453 | cell growth or viability, SRB |  | 48 h |  | GI50 | 0.0033 µM |
| N=C(N)NCCC[C@H](NC(=O)CNC(=O)[C@@H](N)Cc1c[nH]c2ccccc12)C(=O)N1CCC[C@H]1C(=O)O | HaCaT | CCK-8 |  | 100 µg/mL, 72 h, 0.4 % serum |  | viability | 126 ± 3.39% |
| C=CC(=O)Nc1cc(-c2nn(C3CCC(N4CCN(C(C)=O)CC4)CC3)c3ncnc(N)c23)ccc1Oc1ccccc1 (stereo not shown) | PC9/GR4 | cell growth or viability, ATP luminescence |  | 72 h |  | EC50 | ≥ 10 µM |
| CC1CCC2C(C)C(OC(=O)CCC(=O)N(CCCc3cn(-c4ccc([N+](=O)[O-])cc4)nn3)CCNc3ccnc4cc(Cl)ccc34)OC3OC4(C)CCC1C32OO4 (stereo not shown) | MOLT-4 | cell growth or viability, resazurin |  | 10 µM, 48 h |  | inhibition | 33.4% |
| CC[C@H](C)[C@H](NC(C)=O)C(=O)N[C@@H](CC(N)=O)C(=O)N[C@@H](Cc1c[nH]c2ccccc12)C(=O)N[C@@H](Cc1c[nH]cn1)C(=O)N[C@@H](C)C(=O)N[C@H](C(=O)N[C@@H](C)C(=O)N[C@@H](Cc1c[nH]cn1)C(=O)N[C@@H](CCSC)C(=O)N[C@@H](C)C(=O)N[C@@H](CCCCN)C(=O)N[C@@H](CCCCN)C(=O)N[C@@H](CC(C)C)C(=O)N[C@@H](CC(C)C)C(N)=O)[C@@H](C)CC | human erythrocytes | hemolysis |  | no metal added |  | Hill coefficient | 1.9 ± 0.2 |
| O=C(O)c1ccc(/C=C2\SC(=S)N(Cc3cccc(C(F)(F)F)c3)C2=O)cc1 | LPS-primed mouse BMDM | item: LDH release |  | concentration not given, added: nigericin |  | cell death | inhibited |
| CC12OOC(C)(OO1)C2CCC(=O)NCCCNc1ccnc2cc(Cl)ccc12 (stereo not shown) | CCRF-CEM | cell growth or viability, resazurin |  | 10 µM, 48 h |  | inhibition | 37.8% |
| C[C@@H]1O[C@H]2O[C@@H]3C4(O)C(=O)c5cccc(O)c5C(=O)C4(O)O[C@]3(C)[C@]21O (stereo partly shown) | HeLa and HFF | MTT |  |  | relative to: CC50 HFF over EC50 HeLa | selectivity index | 2.32 |
| CC12CCC3(CCC(=O)NCCNc4ccnc5cc(Cl)ccc45)C(C)(OOC3(C)O1)O2 | CCRF-CEM | cell growth or viability, resazurin |  | 10 µM, 48 h |  | inhibition | 16% |
| COc1ccc(/C=C/C(=O)CC(=O)/C=C/c2ccc(OC)c(OC)c2)cc1OC | LN-229 | Western blot, item: p-AKT, p-ERK, LC3B-II, p62 |  | concentration not given, 24 h |  | protein level | increased |
| CC12CCC3(CCC(=O)OCCNc4ccnc5cc(Cl)ccc45)C(C)(OOC3(C)O1)O2 | MOLT-4 | cell growth or viability, resazurin |  | 10 µM, 48 h |  | inhibition | 12.9% |
| CC[C@H](C)[C@H](NC(C)=O)C(=O)N[C@@H](CC(N)=O)C(=O)N[C@@H](Cc1c[nH]c2ccccc12)C(=O)N[C@@H](Cc1c[nH]cn1)C(=O)NCC(=O)N[C@H](C(=O)N[C@@H](C)C(=O)N[C@@H](Cc1c[nH]cn1)C(=O)N[C@@H](CCSC)C(=O)N[C@@H](C)C(=O)N[C@@H](CCCCN)C(=O)N[C@@H](CCCCN)C(=O)N[C@@H](CC(C)C)C(=O)N[C@@H](CC(C)C)C(N)=O)[C@@H](C)CC | human erythrocytes | haemolysis |  | added: Ni(II) 300 µM |  | Hill coefficient | 1.3 ± 0.1 |
| O=C(O)c1ccc([PH]([Au][Cl])(c2ccccc2)c2ccccc2)cc1 | HUVEC | tube formation |  | IC10, 16 h |  | tube node disruption | 23% |
| C=CC(=O)Oc1ccc(Cl)cc1C(=O)Nc1ccc([N+](=O)[O-])cc1Cl | CWR22Rv1 cells | ELISA |  | 0.5 and 1.0 µM |  | cell death | increased |
| O=C(O)CCC(NP(=O)(O)OCCC[C@@H](NC(=O)CCC(NC(=O)CCCCCNC(=O)c1ccc([18F])cc1)C(=O)O)C(=O)O)C(=O)O (stereo partly shown) | CWR22Rv1 |  |  | 2 h |  | surface-bound fraction | 15.8 ± 2.3% |

| Structure (SMILES) | cell line | test | test system | conditions | scale | endpoint | value |
| --- | --- | --- | --- | --- | --- | --- | --- |
| COC(=O)c1ccc(-n2cc(CCCN(CCNc3ccnc4cc(Cl)ccc34)C(=O)CCC(=O)OC3OC4OC5(C)CCC6C(C)CCC(C3C)C46OO5)nn2)cc1 (stereo not shown) | CCRF-CEM | cell growth or viability, resazurin |  | 10 µM, 48 h |  | inhibition | 53% |
| CNC(=O)c1cc(Oc2ccc(NC(=O)CCC(=O)OC3OC4OC5(C)CCC6C(C)CCC(C3C)C46OO5)cc2)ccn1 (stereo not shown) | Hep3B and LO2 | cell viability, MTT |  | 72 h | relative to: IC50 LO2 over IC50 Hep3B | selectivity ratio | 2.1 |
| CN[C@](C)(C[18F])C(=O)O | SK-OV-3 | amino acid uptake |  | concentration not given, added: BCH 10 mM | relative to: control | inhibition | 6% |
| CC(C)CC(O)(CC(C)C)c1cn(C(=O)N2CCCC2)nn1 | mouse T-cells | N-terminal labeled proteins, N-terminal enrichment proteomics, item: LARP1 |  | 1 nM, 6 h | relative to: DMSO | SILAC ratio | 2.57 ± 0.44 |
| CCCCCCCCCCCCCC(=O)NCC(=O)N[C@@H](CCCNC(=N)N)C(=O)N[C@@H](Cc1c[nH]c2ccccc12)C(=O)N[C@@H](CCCCN)C(=O)N[C@H](C(=O)N[C@@H](Cc1ccccc1)C(=O)N[C@@H](CCCCN)C(=O)N[C@@H](CCCCN)C(=O)N[C@H](C(=O)N[C@@H](CCC(=O)O)C(=O)N[C@@H](CCCCN)C(=O)N[C@H](C(=O)NCC(=O)N[C@@H](CCC(N)=O)C(=O)N[C@@H](CC(N)=O)C(=O)N[C@H](C(=O)N[C@@H](CCCNC(=N)N)C(=O)N[C@@H](CC(=O)O)C(=O)NCC(=O)N[C@H](C(=O)N[C@H](C(=O)N[C@@H](CCCCN)C(=O)N[C@@H](C)C(=O)NCC(=O)N1CCC[C@H]1C(=O)N[C@@H](C)C(=O)N[C@H](C(=O)N[C@@H](C)C(=O)N[C@H](C(=O)N[C@H](C(=O)NCC(=O)N[C@@H](CCC(N)=O)C(=O)N[C@@H](C)C(=O)N[C@@H](C)C(=O)N[C@H](C(=O)N[C@H](C(N)=O)[C@@H](C)CC)[C@@H](C)O)C(C)C)C(C)C)C(C)C)C(C)C)[C@@H](C)CC)[C@@H](C)CC)C(C)C)[C@@H](C)CC)[C@@H](C)CC | K562/MDR | annexin V/PI flow cytometry |  | 2 µM, 16 h |  | necrotic cells | 15.9% |
| CSCC[C@H](NC(=O)[C@H](CC(C)C)NC(=O)CNC(=O)[C@H](Cc1ccccc1)NC(=O)[C@H](Cc1ccccc1)NC(=O)[C@H](CCC(N)=O)NC(=O)[C@H](CCC(N)=O)NC(=O)[C@@H]1CCCN1C(=O)[C@H](CCCCN)NC(=O)[C@@H]1CCCN1C(=O)[C@@H](N)CCCNC(=N)N)C(N)=O | rat mast cells | patch-clamp capacitance |  | 1 to 25 µM |  | degranulation rate | 0.045 ± 0.008 pF/s |
| CC(=O)N[C@@H](CCCNC(=N)N)C(=O)N[C@@H](CCCNC(=N)N)C(=O)N[C@@H](CCCNC(=N)N)C(=O)N[C@@H](CCCNC(=N)N)C(=O)N[C@@H](CCCNC(=N)N)C(=O)N[C@@H](CCCNC(=N)N)C(=O)N[C@@H](CCCNC(=N)N)C(=O)N[C@@H](CCCNC(=N)N)C(=O)N[C@@H](CCCNC(=N)N)C(=O)N[C@@H](CCCNC(=N)N)C(=O)NCC(=O)N[C@@H](COP(=O)(O)O)C(=O)N1CCC[C@H]1C(=O)N[C@H](C(=O)N[C@@H](Cc1ccccc1)C(=O)O)[C@@H](C)O | HeLa | co-immunoprecipitation | cytoplasmic fraction | up to 100 µM, added: with or without irradiation 10 Gy |  | BRCA1-Abraxas interaction | no effect |
| CCC(=O)CCC[C@H](C)C[C@H](NC(=O)[C@@H]1C[C@H](C)CN1C(=O)/C=C/[C@@H](C)CC)C(=O)N[C@H](C(=O)NC(C)(C)C(=O)N[C@@H](CC(C)C)C(=O)N[C@@H](CC(C)C)C(=O)NC(C)(C)C(=O)NC(C)(C)C(=O)NCCC(=O)N[C@@H](C)CNC)[C@H](O)C(C)C | SUM185PE | cell growth or viability, SRB |  | 48 h |  | GI50 | 0.0039 µM |
| CCN(CC)CCOc1ccc(-c2nnn(Cc3ccc(OC)cc3)c2N)cc1 | HEI-193 | RT-qPCR, item: NDUFB8, NDUFA4, S100A10, EPHX1 |  | concentration not given |  | mRNA level | increased |
| Cc1cc(CS(=O)(=O)c2ccccc2)cc(OCc2ccc(CN3CCC[C@@H]3CO)cc2)c1 | U2OS | item: lysosomal labelling |  | 30 µM |  | LysoTracker Red signal | 95.3 ± 3% |
| Cc1cc2c(C(=O)Cc3ccccc3)c(O)c(O)cc2c(O)c1-c1c(C)cc2c(C(=O)Cc3ccccc3)c(O)c(O)cc2c1O | RS11846 | ATP-lite viability |  | 72 h |  | EC50 | 2.6 µM |
| CC/C=C\C/C=C\C/C=C\C/C=C\C/C=C\C/C=C\CCC(=O)Nc1ccn(C2OC(CO)C(O)C2(F)F)c(=O)n1 (stereo not shown) | SF-295 | NCI60 screen |  |  |  | CC50 | 37.5 µM |
| CC[C@@]12CC[C@@H]3N(C)c4ccccc4[C@@]34CCN(C[C@H]3O[C@H]31)[C@@H]24 | BV-2 | NO production |  | 25 µM, 1 h, 24 h stimulation, added: LPS 800 ng/mL | relative to: LPS control | inhibition | 61.8 ± 4% |
| CNC(=O)c1cc(Oc2ccc(NC(=O)c3cc(-c4ccc(COC(=O)CCC(=O)OC5OC6OC7(C)CCC8C(C)CCC(C5C)C68OO7)cc4)ccn3)cc2)ccn1 (stereo not shown) | Hep3B and LO2 | cell viability, MTT |  | 72 h | relative to: IC50 LO2 over IC50 Hep3B | selectivity ratio | 4.4 |
| CCCN1CCNC1=[S+][Ag-3]([O][N+](=O)[O-])([P+](c1ccccc1)(c1ccccc1)c1ccccc1)[P+](c1ccccc1)(c1ccccc1)c1ccccc1 | MG-63 osteosarcoma | MTT |  | 100 µM |  | cell killing | ≤ 91% |

A few entries again:
| Structure (SMILES) | cell line | test | test system | conditions | scale | endpoint | value |
| --- | --- | --- | --- | --- | --- | --- | --- |
| CNC(=O)c1cc(Oc2ccc(NC(=O)CCC(=O)OC3OC4OC5(C)CCC6C(C)CCC(C3C)C46OO5)cc2)ccn1 (stereo not shown) | Hep3B and LO2 | cell viability, MTT |  | 72 h | relative to: IC50 LO2 over IC50 Hep3B | selectivity ratio | 2.1 |
| CN[C@](C)(C[18F])C(=O)O | SK-OV-3 | amino acid uptake |  | concentration not given, added: BCH 10 mM | relative to: control | inhibition | 6% |
| CC(C)CC(O)(CC(C)C)c1cn(C(=O)N2CCCC2)nn1 | mouse T-cells | N-terminal labeled proteins, N-terminal enrichment proteomics, item: LARP1 |  | 1 nM, 6 h | relative to: DMSO | SILAC ratio | 2.57 ± 0.44 |
| CCCCCCCCCCCCCC(=O)NCC(=O)N[C@@H](CCCNC(=N)N)C(=O)N[C@@H](Cc1c[nH]c2ccccc12)C(=O)N[C@@H](CCCCN)C(=O)N[C@H](C(=O)N[C@@H](Cc1ccccc1)C(=O)N[C@@H](CCCCN)C(=O)N[C@@H](CCCCN)C(=O)N[C@H](C(=O)N[C@@H](CCC(=O)O)C(=O)N[C@@H](CCCCN)C(=O)N[C@H](C(=O)NCC(=O)N[C@@H](CCC(N)=O)C(=O)N[C@@H](CC(N)=O)C(=O)N[C@H](C(=O)N[C@@H](CCCNC(=N)N)C(=O)N[C@@H](CC(=O)O)C(=O)NCC(=O)N[C@H](C(=O)N[C@H](C(=O)N[C@@H](CCCCN)C(=O)N[C@@H](C)C(=O)NCC(=O)N1CCC[C@H]1C(=O)N[C@@H](C)C(=O)N[C@H](C(=O)N[C@@H](C)C(=O)N[C@H](C(=O)N[C@H](C(=O)NCC(=O)N[C@@H](CCC(N)=O)C(=O)N[C@@H](C)C(=O)N[C@@H](C)C(=O)N[C@H](C(=O)N[C@H](C(N)=O)[C@@H](C)CC)[C@@H](C)O)C(C)C)C(C)C)C(C)C)C(C)C)[C@@H](C)CC)[C@@H](C)CC)C(C)C)[C@@H](C)CC)[C@@H](C)CC | K562/MDR | annexin V/PI flow cytometry |  | 2 µM, 16 h |  | necrotic cells | 15.9% |
| CSCC[C@H](NC(=O)[C@H](CC(C)C)NC(=O)CNC(=O)[C@H](Cc1ccccc1)NC(=O)[C@H](Cc1ccccc1)NC(=O)[C@H](CCC(N)=O)NC(=O)[C@H](CCC(N)=O)NC(=O)[C@@H]1CCCN1C(=O)[C@H](CCCCN)NC(=O)[C@@H]1CCCN1C(=O)[C@@H](N)CCCNC(=N)N)C(N)=O | rat mast cells | patch-clamp capacitance |  | 1 to 25 µM |  | degranulation rate | 0.045 ± 0.008 pF/s |
